# Measurements of several laboratories.
# Lines come from different studies, so protocols differ. ± gives the spread as reported.
# UniProt Q9UKP6, sequence (whole entry, looked up): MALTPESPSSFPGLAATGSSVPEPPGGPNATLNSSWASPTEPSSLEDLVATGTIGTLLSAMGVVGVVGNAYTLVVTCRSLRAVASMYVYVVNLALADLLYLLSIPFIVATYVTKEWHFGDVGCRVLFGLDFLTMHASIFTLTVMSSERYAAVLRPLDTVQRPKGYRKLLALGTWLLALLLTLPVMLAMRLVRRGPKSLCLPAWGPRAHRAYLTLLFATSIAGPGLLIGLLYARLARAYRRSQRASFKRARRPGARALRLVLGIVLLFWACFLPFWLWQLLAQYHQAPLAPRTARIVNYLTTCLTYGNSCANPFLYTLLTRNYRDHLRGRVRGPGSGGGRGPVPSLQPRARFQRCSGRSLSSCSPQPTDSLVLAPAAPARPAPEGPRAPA
# UniProt P78362, sequence (whole entry, looked up): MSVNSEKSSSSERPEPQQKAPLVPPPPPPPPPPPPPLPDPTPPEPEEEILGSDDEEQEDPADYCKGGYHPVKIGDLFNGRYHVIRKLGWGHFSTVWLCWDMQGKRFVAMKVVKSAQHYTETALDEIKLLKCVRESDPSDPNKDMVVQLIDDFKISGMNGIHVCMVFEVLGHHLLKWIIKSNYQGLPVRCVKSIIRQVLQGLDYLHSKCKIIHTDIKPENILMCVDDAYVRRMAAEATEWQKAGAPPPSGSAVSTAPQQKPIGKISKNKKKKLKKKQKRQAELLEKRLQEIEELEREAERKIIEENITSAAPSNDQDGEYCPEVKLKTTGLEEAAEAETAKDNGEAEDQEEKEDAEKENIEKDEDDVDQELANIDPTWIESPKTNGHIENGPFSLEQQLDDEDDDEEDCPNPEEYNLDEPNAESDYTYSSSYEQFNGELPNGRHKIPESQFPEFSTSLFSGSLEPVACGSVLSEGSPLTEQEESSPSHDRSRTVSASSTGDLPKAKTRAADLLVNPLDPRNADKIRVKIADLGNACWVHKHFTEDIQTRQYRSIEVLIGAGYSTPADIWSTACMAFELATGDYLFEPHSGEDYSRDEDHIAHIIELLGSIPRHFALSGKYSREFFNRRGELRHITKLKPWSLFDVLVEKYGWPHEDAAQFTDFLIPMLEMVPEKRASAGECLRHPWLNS
Structure (SMILES),tested on,test,test system,setting,how to read,measurement,value
CC(C)c1ccc(N(C)c2ccc3c(c2)OCC[C@H]3CNc2cnccc2C(=O)O)cc1,KMS-11,"cell growth or viability, ATP luminescence",,7 days,,IC50,0.0122 µM
Nc1nc2cnc(C(=O)N3CCOC[C@@H]3c3ccc(C(F)(F)F)cc3)cc2c2c1COC2,DOHH-2,cell growth,,,,IC50,0.051 µM
CN1CCN(C(=O)c2cccc(N3Cc4cn(Cc5ccc(F)cc5)nc4C3)c2)CC1,HEK293 expressing GluA1 and GluA2,"glutamate excitotoxic cell death, CellTox Green",,added: glutamate,,IC50,0.033 µM
C=CC(=O)N1CCCC(n2c(=O)c3ncccc3n(Cc3ccc(Oc4ccccc4)cc3)c2=O)C1 (centres unmarked),SU-DHL-5,"cell growth or viability, MTT",,72 h,,IC50,5 µM
CN(C)C(=O)c1cccc(N2Cc3cn(Cc4cccc(C(F)(F)F)c4)nc3C2)c1,HEK293 expressing GluA1 and GluA2,"glutamate excitotoxic cell death, CellTox Green",,added: glutamate,,IC50,0.065 µM
COC(CC1C(C)=CCC2C1(C)CCC1C(C)(C)C(O)C(O)CC12C)C(N)C(=O)O (centres unmarked),THP-29,"cell viability, CCK-8",,72 h,,IC50,> 10 µM
CN(C)c1ccnc(N2Cc3cnn(Cc4ccc(F)cc4)c3C2)n1,HEK293 expressing GluA1 and GluA2,"glutamate excitotoxic cell death, CellTox Green",,added: glutamate,,IC50,0.731 µM
NCCOc1cc(NC(=O)c2cc(OCc3cn([C@H]4O[C@@H](CO)[C@H](O)[C@@H](O)[C@@H]4O)nn3)cc(C(=O)Nc3cc(OCCN)c4ccccc4n3)n2)nc2ccccc12,HT-1080,"cell growth or viability, ATP luminescence",,72 h,,IC50,> 40 µM
Cc1nn(-c2cccc(N)c2)c(=O)c2cnc(Nc3ccc(N4CCNCC4)cc3)nc12,"SRPK2 (Homo sapiens, UniProt P78362)","kinase activity, inhibitor, SelectScreen kinase profiling",,,,IC50,> 10 µM
CCOc1cncc(-c2ccc(NC(=O)C3(c4ccnc(NS(=O)(=O)C5CC5)n4)CCOCC3)nc2)n1,SD-1,"cell proliferation, CellTiter-Glo",,"72 h, lymphoid haematological cancer",,IC50,0.061 µM
CC(C)=CC1OC(C)(C)C2C=C3C(=O)C(Cl)=CC(O)C3C3C(O)C4OC4C(=O)C132 (centres unmarked),SGC-7901,"cell growth or viability, MTS",,,,IC50,3.19 µM
Cc1ccc(C(C)C)cc1.Cc1ccc(C(C)C)cc1.Cc1ccc(C(C)C)cc1.Cc1ccc(C(C)C)cc1.O=S(=O)(O)C(F)(F)F.O=S(=O)(O)C(F)(F)F.O=S(=O)(O)C(F)(F)F.O=S(=O)(O)C(F)(F)F.c1ccc2c3c4ccccc4c(c2c1)-c1cn(nn1)-c1cc[n+](cc1)[Ru-]1[O]c2c4ccccc4c4c5c(c6ccccc6c(c25)=[O+]1)=[O+][Ru-]([O]4)[n+]1ccc(cc1)-n1cc(nn1)-c1c2ccccc2c(c2ccccc12)-c1cn(nn1)-c1cc[n+](cc1)[Ru-]1[O]c2c4ccccc4c4c5c(c6ccccc6c(c25)=[O+]1)=[O+][Ru-]([O]4)[n+]1ccc(cc1)-n1cc-3nn1,AGS,"cell growth, MTT",,"24 h, after 24 h preincubation in medium at 37 °C",,IC50,7.6 ± 0.55 µM
CN1C(=O)CS/C1=N\N=C\c1cccc2cc3ccccc3nc12,SK-BR-3,"cell growth or viability, MTT",,48 h,,IC50,> 50 µM
Cc1ccc([N+](=O)[O-])cc1S(=O)(=O)N(C)/N=C/c1cnc2ccc(Br)cn12,HOP-62,cell growth or viability,,,,IC50,0.008 µM
Cc1ccc(C(C)C)cc1.Cc1ccc(C(C)C)cc1.Cc1ccc(C(C)C)cc1.Cc1ccc(C(C)C)cc1.O=S(=O)(O)C(F)(F)F.O=S(=O)(O)C(F)(F)F.O=S(=O)(O)C(F)(F)F.O=S(=O)(O)C(F)(F)F.c1ccc2c3c4ccccc4c(c2c1)-c1cn(nn1)-c1cc[n+](cc1)[Ru-]1[O]c2cc4c(cc2=[O+]1)[O][Ru-]([O+]=4)[n+]1ccc(cc1)-n1cc(nn1)-c1c2ccccc2c(c2ccccc12)-c1cn(nn1)-c1cc[n+](cc1)[Ru-]1[O]c2cc4c(cc2=[O+]1)[O][Ru-]([O+]=4)[n+]1ccc(cc1)-n1cc-3nn1,AGS,"cell growth or viability, MTT",,24 h,,IC50,16.5 µM
CCn1nc(Cl)c2c1-c1cnc(N)c(c1)O[C@H](C)c1cc(F)ccc1-c1nn(C)cc1C2,Ba/F3 ETV6-TRKB,cell viability,,,,IC50,0.128 µM
CN(C)C(=O)c1ccnc(N2Cc3cn(Cc4ccccc4F)nc3C2)n1,HEK293 expressing GluA1 and GluA2,"glutamate excitotoxic cell death, CellTox Green",,added: glutamate,,IC50,0.733 µM
Cc1ccc2c(Cl)cc(Cl)c([O-])c2n1.Cc1ccc2c(Cl)cc(Cl)c([O-])c2n1.Cc1ccnc(-c2cc(C)ccn2)c1.[Co+2],HepG2,"cell growth or viability, MTT",,48 h,,IC50,8 µM
O=c1cc(-c2ccc(O)c(O)c2)oc2cc(O)cc([O][Ga+][O]c3cc(O)cc4oc(-c5ccc(O)c(O)c5)cc(=O)c34)c12,LO2,"cell viability, MTT",,,,IC50,> 200 µM
Fc1ccc(Cn2ncc3c2CN(c2nccc(N4CCC4)n2)C3)cc1,HEK293 expressing GluA1 and GluA2,"glutamate excitotoxic cell death, CellTox Green",,added: glutamate,,IC50,4.6 µM
COC1CN([C@H]2CC[C@H]([C@@]3(C)Oc4c(Cl)cc(C(=O)NCc5c(SC)cc(C)[nH]c5=O)c(C)c4O3)CC2)C1,,"RNA-seq, measured: PROX1 mouse homolog","mouse, HT-1376 xenograft, whole blood",dose not given,baseline: vehicle,log2 fold change,0.969
C=C1CC[C@H](OCCCNC(=O)CCOCCOCCOCCOCCOCCOCCOCCOCCOCCOCCOCCOCCOCCOCCOCCOCCOCCOCCOCCOCCOCCOCCOCCOCCOCCOCCOCCOCCOCCOCCOCCOCCOCCOCCOCCOCCNC(=O)CCN2C(=O)CC(SC[C@H](NC(=O)[C@H](Cc3ccccc3)NC(=O)[C@H](CC(N)=O)NC(=O)[C@H](Cc3c[nH]cn3)NC(=O)[C@@H](NC(=O)[C@H](CC(=O)O)NC(=O)[C@H](CCC(N)=O)NC(=O)[C@H](CC(C)C)NC(=O)[C@H](CCCCN)NC(=O)[C@H](CCCCN)NC(=O)[C@H](CCCNC(=N)N)NC(=O)[C@H](CC(C)C)NC(=O)[C@H](Cc3c[nH]c4ccccc34)NC(=O)[C@H](CCC(=O)O)NC(=O)[C@@H](NC(=O)[C@H](CCCNC(=N)N)NC(=O)[C@H](CCC(=O)O)NC(=O)[C@H](CCSC)NC(=O)[C@H](CO)NC(=O)[C@H](CC(N)=O)NC(=O)[C@H](CC(C)C)NC(=O)[C@H](Cc3c[nH]cn3)NC(=O)[C@H](CCCCN)NC(=O)CNC(=O)[C@H](CC(C)C)NC(=O)[C@H](CC(N)=O)NC(=O)[C@H](Cc3c[nH]cn3)NC(=O)[C@H](CCSC)NC(=O)[C@H](CC(C)C)NC(=O)[C@H](CCC(N)=O)NC(=O)[C@@H](NC(=O)[C@H](CCC(=O)O)NC(=O)[C@H](CO)NC(=O)[C@@H](NC(=O)[C@@H](N)CO)C(C)C)[C@@H](C)CC)C(C)C)C(C)C)C(=O)O)C2=O)C/C1=C/C=C1\CCC[C@]2(C)[C@@H]([C@H](C)CCCC(C)(C)O)CC[C@@H]12 (some centres unmarked),,,"male Sprague-Dawley rat, plasma","subcutaneous, 300 µg/kg, single dose",,clearance,0.382 mL/min/kg
Fc1ccc(Cn2ncc3c2CN(c2nccc(N4CCCC4)n2)C3)cc1,HEK293 expressing GluA1 and GluA2,"glutamate excitotoxic cell death, CellTox Green",,added: glutamate,,IC50,0.496 µM
NC(=O)c1ccc(-c2ccccc2Cl)c2c3c([nH]c12)CC[C@@H](N)C3,SGC-7901,cell growth or viability,,,,IC50,0.0156 µM
CC(C)C[C@H](NC(=O)[C@@H](CCCCNC(=O)[C@@H](Cc1ccccc1)NC(=O)CCCCCNC(=O)CN1CCN(CC(=O)O)CCN(CC(=O)O)CCN(CC(=O)O)CC1)NC(=O)[C@H](Cc1ccc(O)cc1)NC(=O)[C@H](CO)NC(=O)[C@H](Cc1c[nH]c2ccccc12)NC(=O)[C@H](Cc1c[nH]cn1)NC(=O)[C@@H]1CCC(=O)N1)C(=O)N[C@@H](CCCNC(=N)N)C(=O)N1CCC[C@H]1C(=O)NCC(N)=O [indium-111 labelled],,,"female athymic nude mice, liver","intravenous, 0.037 MBq, 0.5 h",,tissue uptake,1.3 ± 0.39 %ID/g
CN(C)C(=O)c1cccc(N2Cc3cn(Cc4ccc(F)c(F)c4)nc3C2)c1,HEK293 expressing GluA1 and GluA2,"glutamate excitotoxic cell death, CellTox Green",,added: glutamate,,IC50,0.005 µM
C=CC(=O)Nc1cccc(Cn2ncc3cnc(Nc4cnn(CCOC)c4)nc32)c1,STK35 human,"binding, KINOMEscan",,100 nM,lower = stronger binding,percent of control,100%
Cn1ncc(-c2ccc3c(=O)[nH]nc(CN)c3c2)c1-c1c(F)c(Cl)cc(OC2CC2)c1C#N,CAL-62,"cell viability, inhibitor, CellTiter-Glo",,"120 h, baseline-subtracted",,IC50,0.16 µM
CC(=O)NCCOCCOCCNC(=O)c1cc(C(=O)N2CCNCCNCCNCC2)c(O)c(C(=O)N2CCNCCNCCNCC2)c1,2C6 normal pancreas,"cell viability, MTT",,24 h,,IC50,> 1000 µM
Fc1ccc(Cn2ncc3c2CN(c2ccccc2)C3)cc1,HEK293 expressing GluA1 and GluA2,"glutamate excitotoxic cell death, CellTox Green",,added: glutamate,,IC50,0.932 µM
CN1CCC(N[C@H]2CCc3[nH]c4c(C(N)=O)ccc(-c5ccccc5Cl)c4c3C2)CC1,SGC-7901,cell growth or viability,,,,IC50,0.997 µM
COc1cc(-c2cn(C)c(=O)c3cnccc23)c(OC)cc1Cn1ccnc1,MV4-11,"cell growth or viability, ATP luminescence",,,,IC50,4.6 µM
NCCCn1cc(COc2cc(C(=O)Nc3cc(OCCN)c4ccccc4n3)nc(C(=O)Nc3cc(OCCN)c4ccccc4n3)c2)nn1,HT-1080,"cell growth or viability, ATP luminescence",,72 h,,IC50,> 40 µM
CC(C)[C@H](NC(=O)[C@@H]1CSSC(C)(C)[C@H](NC(=O)[C@@H](N)CC(=O)O)C(=O)N[C@@H](Cc2ccccc2)C(=O)N[C@H](Cc2c[nH]c3ccccc23)C(=O)N[C@@H](CCCN)C(=O)N[C@@H](Cc2ccc(O)cc2)C(=O)N1)C(=O)O,"UTS2R (Homo sapiens, UniProt Q9UKP6)","agonist, BRET2 biosensor",HEK293,,,EC50,0.0407 µM
Nc1ncc(-c2cc(-c3cnn(CC(F)(F)F)c3)ncc2F)nc1C(=O)NC1CNCC(F)C1 (centres unmarked),S6K1,KINOMEscan competition binding,,1 µM,baseline: DMSO control,remaining binding,86%
Nc1nnc(-c2ccccc2O)cc1N1CC2CCC(C1)N2c1ccnc(C#CCCN2CCCCCC2)c1,NCI-H1944,"cell growth or viability, ATP luminescence",,7 days,,IC50,0.0261 µM
Cc1ncsc1-c1ccc(C(C)NC(=O)C2CC(O)CN2C(=O)C(NC(=O)CCCCCCCCCCN2CCCC(Nc3ncc(Cl)c(Nc4ccccc4S(=O)(=O)C(C)C)n3)C2)C(C)(C)C)cc1 (centres unmarked),22Rv1,"RNA-seq, measured: ZNF302 mRNA",,concentration not given,baseline: DMSO,log2 fold change,-1.32
C=C(NC(=O)c1csc(-c2nc3c(cc2O)-c2nc(cs2)C(=O)NC(C(C)O)C(=O)NC(=C(C)OC)c2nc(cs2)C(=O)NC2c4nc(cs4)C(=O)NC(COC(=O)c4c5c6c(cccc6n4O)COC(=O)C(OC4CC(C)(O)C(N(C)C)C(C)O4)C2OC5)c2nc-3cs2)n1)C(N)=O (centres unmarked),,,"ICR mice, Streptococcus pneumoniae ATCC 49169 infected, immunocompromised, blood","intravenous, 2 mg/kg/day three times daily",,half-life,1.02 h
Cc1cnc(Nc2ccc3c(c2)CCN(C(=O)/C=C/C(=O)C2CCC(C)CC2)C3)nc1-c1cnn(C(C)C)c1 (centres unmarked),HCC70,"cell growth or viability, MTT",,48 h,,IC50,0.94 µM
CCOC(=O)/C=C1\S/C(=N\N=C\c2cccc3cc4ccccc4nc23)N(c2ccc([N+](=O)[O-])cc2)C1=O,SK-BR-3,"cell growth or viability, MTT",,48 h,,IC50,> 50 µM
O=C(NCCOCCOCCNC(=O)c1cc2ccccc2c2ccccc12)c1cc(C(=O)N2CCNCCNCCNCC2)c(O)c(C(=O)N2CCNCCNCCNCC2)c1,2C6 normal pancreas,"cell viability, MTT",,24 h,,IC50,> 1000 µM
CN1CCCNC(=O)c2cccc(c2)C(=O)NCCCN(C)CCCNc2cccc3c2C(=O)c2cccc(c2C3=O)NCCC1,SAS,"RNA-Seq, measured: ATP1B3 mRNA",,"1 µM, 6 h",baseline: untreated cells,log2 fold change,-0.768
CCN(C(=O)c1cc(F)ccc1Oc1nncnc1N1CCC2(C1)CN([C@H](CCCN(C)CCOC)C(C)C)C2)C(C)C,"MOLM-14 (KMT2A-AF9, FLT3-ITD)","mRNA level, QuantiGene multiplex, measured: FLT3",,,,IC50,0.301 ± 0.081 µM
CCn1cc(-c2cccc(C(F)(F)F)c2)c2sc(C(=N)NC3CCS(=O)(=O)CC3)cc2c1=O,MV4-11,"cell growth or viability, ATP luminescence",,,,IC50,1.4 µM
C/C(=N\NC(N)=S)c1c(O)c2ccccc2oc1=O,human Skin fibroblast,"cell growth or viability, MTT",,48 h,,IC50,> 100 µM
CNS(=O)(=O)Nc1nccc(Cc2c(C)c3ccc(Oc4ncccc4F)cc3oc2=O)c1F,MDA-MB-435S,"cell viability, CellTiter-Glo",,7 days,,IC50,0.0018 µM
COc1cc(-c2cc(C(C)=O)n3ccccc23)cc(OC)c1C(=O)N(C)C,MV4-11,"cell growth or viability, ATP luminescence",,,,IC50,2.01 µM
